Experimental data pooled from the literature.
Compare with care: the assays were run in different laboratories. Values joined by “and” are separate records of one study, mostly repeats; a detail may differ.

With `EKPIDSETKM` the binding intensity was 0.35 (human SCRIB PDZ3-4 tandem (MBP fusion); automated holdup; peptide, crude extract; concentration not given, uncorrected, unit not given; relative to: biotin control resin, higher = stronger binding).
Under “EBV DNA copy number”, `LVHYTHCGSLGV` is recorded as 0 copies (Epstein-Barr virus; BamHI-W qPCR; peptide, B-NDG humanized mouse, EBV-infected, peripheral blood; 20 mg/kg, day 14).
`Polymyxin B`: “inhibition zone diameter” 14 mm (Escherichia coli; ATCC 25922; 15.6 µg per disc, 24 h, 37 °C).
For `maraviroc`, “HIV-1 pol decrease” read 34.8 fold (HIV-1 ADA; viral replication, qPCR; HIV-infected mice, brain; ip, 120 mg/kg twice daily, 3 weeks post-infection, normalized to CD45+ cells; relative to: untreated HIV-infected mice).
The FIC index of `colistin` is reported as 0.6 (Escherichia coli; tetracycline-resistant; 0.0156 µM, with: tetracycline).
`CTCATTGTCT` — result for “log2 fold change”: -1.45 (Salmonella enterica Typhimurium; RNA-seq, item: fadL mRNA; peptide, SL1344; 5 µM, 15 min; relative to: water control).
`colistin` gave an MIC of 1 µg/mL (Pseudomonas aeruginosa; broth microdilution; clinical isolate RKI-No_693/15).
`milbemycin oxime` gave an OD600 of 1.02 and 1 and 1.04 (Saccharomyces cerevisiae; cell growth; Pdr5 deleted, Cdr1 overexpressed; 2^-7.966 µg/mL, with: fluconazole 1 µg/mL).
`TCACTATCTC`: “log2 fold change” 2.59 (Salmonella enterica Typhimurium; RNA-seq, item: SL1344_3728 transcript; peptide, SL1344; 5 µM, 15 min; relative to: untreated control).
`QGRWDHETIV` has a binding intensity of 0.582 (human SCRIB PDZ3-4 tandem (MBP fusion); automated holdup; peptide, crude extract; concentration not given, uncorrected, unit not given; relative to: biotin control resin, higher = stronger binding).
`CTCATACTGA`: “log2 fold change” -1.91 (Salmonella enterica Typhimurium; RNA-seq, item: fabF mRNA; peptide, SL1344; 5 µM, 15 min; relative to: water control).
With `gentamicin` the viable count was 0 log CFU/mL (Escherichia coli; time-kill; 1 x MIC, 120 min).
With `Polymyxin B` the membrane depolarisation was 495 a.u. and 478 a.u. and 399 a.u. (Staphylococcus aureus; DiSC3(5) fluorescence; concentration not given, 87 min; higher = more depolarisation).
For `CTCATACAGT`, “log2 fold change” read 2.55 (Salmonella enterica Typhimurium; RNA-seq, item: SL1344_3728 transcript; peptide, SL1344; 5 µM, 15 min; relative to: untreated control).

A few entries again:
Under “EBV DNA copy number”, `LVHYTHCGSLGV` is recorded as 0 copies (Epstein-Barr virus; BamHI-W qPCR; peptide, B-NDG humanized mouse, EBV-infected, peripheral blood; 20 mg/kg, day 14).
`Polymyxin B`: “inhibition zone diameter” 14 mm (Escherichia coli; ATCC 25922; 15.6 µg per disc, 24 h, 37 °C).
